Experimental data pooled from the literature.
Parts stem from different laboratories: compare values within a part only.

Sample 1 — technique: protein binding microarray; form: double-stranded DNA, one strand shown; matrix: in vitro; concentration: not given; reference: not given; direction: higher = stronger binding
Target: Histone acetyltransferase KAT6A, both winged helices, GST fusion (KAT6A, Homo sapiens, UniProt Q92794, residues 1-181)
Setting: 8-mer, flanks averaged, mean of 2 arrays, mostly near background
Construct (chain): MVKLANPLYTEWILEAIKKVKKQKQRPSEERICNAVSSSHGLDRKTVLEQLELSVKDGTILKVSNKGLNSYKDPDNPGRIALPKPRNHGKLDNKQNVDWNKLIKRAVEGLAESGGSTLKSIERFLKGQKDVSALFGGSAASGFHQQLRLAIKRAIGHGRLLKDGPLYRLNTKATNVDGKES
`ATCAATTC` gave an E-score of -0.109.
For `CCATGCGC`, the E-score was 0.152.
`CAGAAATA` has an E-score of -0.146.
`ACTACGAG` gave an E-score of -0.111.
`ATGAAGAG` has an E-score of -0.00222.
`CGTATCGA` gave an E-score of 0.0283.
With `AGACACCC` the E-score was -0.189.
`AGACGAAA` has an E-score of 0.076.
The E-score of `CGGAACTC` is reported as 0.112.
The E-score of `AGTAATTA` is reported as -0.114.
`CTAACCAC` has an E-score of -0.0847.
`AAGTCTGG` gave an E-score of -0.271.
With `GGTGCTCA` the E-score was -0.101.
`GACCAATA` has an E-score of -0.0253.
With `TCCTACGA` the E-score was -0.153.
`ATGTTCTA` gave an E-score of -0.101.
With `CCCAAGAA` the E-score was -0.201.
With `CGCGCGGC` the E-score was 0.401.
`AAATCATG` gave an E-score of -0.172.

Sample 2 — technique: RNA Bind-n-Seq; form: RNA; matrix: in vitro; concentration: not given; setting: RNA with constant flanks, ends assumed; reference: input RNA pool; direction: higher = stronger binding
Target: RING finger protein unkempt homolog, zinc fingers 1-6, GST-SBP tag (UNK, Homo sapiens, UniProt Q9C0B0, residues 30-357)
Shared flanks, not repeated: GGGAGUUCUACAGUCCGACGAUC … CAACAGAGGAUUGAGCAUCA
Target sequence (chain): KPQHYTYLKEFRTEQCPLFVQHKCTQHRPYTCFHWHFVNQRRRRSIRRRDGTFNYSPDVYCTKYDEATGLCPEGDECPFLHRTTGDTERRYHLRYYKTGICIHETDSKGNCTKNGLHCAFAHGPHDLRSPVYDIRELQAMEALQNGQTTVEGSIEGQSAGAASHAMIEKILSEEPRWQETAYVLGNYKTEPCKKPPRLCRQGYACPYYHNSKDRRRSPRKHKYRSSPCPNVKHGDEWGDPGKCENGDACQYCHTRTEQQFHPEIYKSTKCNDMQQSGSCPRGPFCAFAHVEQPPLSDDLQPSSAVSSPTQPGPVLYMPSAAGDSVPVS
For `AGGCAUGAGCUCUUGGCAGGAGUGGGCUCUGAGCAGGUGUCAUAUUCAUUCUUUACAAACCACCGAGAAAUAAUUUCAUCCCCCAACUGUAGUAAUUGUUACAAUUUUAUAUAAAAAAUU`, the bound/input enrichment was 13.1 ratio.
The bound/input enrichment of `CAGAAGUGGAUUGAGCAAGUAACUGGCAGAAGUUUUGGUGAUAAAGAUUUUCGGACAGGUUCCGAAAAUGGAAUCCUCCUCUGCGAGUUGCUGAAUGCUAUAAAGCCAGGACUUGUUAAA` is reported as 0.0968 ratio.
The bound/input enrichment of `GUAAUGGACGUCAACACUGCUCUACAAGAGGUGCUGAAGACCGCCCUCAUCCACGAUGGCCCCGCACGUGGCAUACGCGAAGCUGCCAAAGCCUUAGACAAGCGCCAAGCCCAUCUGUGU` is reported as 0.162 ratio.
`UAUUGUGAUAUGACAAGAGACUUAACUUAUCUUGCUCUGUCUUCCACUGUACACGCUGUAUACCGGGGUCAAUGUGAUGCUGCUGGAGACGAGAAUAAACUGGACUAGAAUAGUGCAUUG` gave a bound/input enrichment of 0.389 ratio.
For `CCUGGAUGGAACGAGGCAGCAUCACAGUAAACCUUUGGGGACCAUGUAGCCAGCUGGCAUCCCCGGGAACUCCUUCCCAUAGCCCGACUGCUGUCACAGCUAAGCUUCUCACAGGACUGU`, the bound/input enrichment was 0.341 ratio.
`UCUCUACCUCACCUCAGUGGUCAGGGCUGCCUCCACCCAGCAUUGGAAGAGGUCAUUGUGAACCGAACCGUUGAUGUGCUCAGCUGUUCACUGAACCCCUGAGCAUGAGUUGAACAUAGA` gave a bound/input enrichment of 0.179 ratio.
For `CUAGCACAAGGAGACAUGAAACAGCUGGCUGAAGAUGUGAAGCUGCAGCUGUAUAAGUUACCCGAAAUUCCUGAUCCAGACAAAAACUGGGCUACUCUGGCGCAGAAAUUAGGUCUGGGG`, the bound/input enrichment was 0.17 ratio.
The bound/input enrichment of `CUUAUGGCUGCAGAAACAGGAAGUGGCAAAACUGGUGCUUUUAGUAUUCCAGUUAUCCAGACCGUUUAUGAAACUCUGAAAGACCAACAGGAAGGCAAAAAAGGAAAAACAACAAUUAAA` is reported as 0.351 ratio.
`GCUUUGACUUCAAAAAAAGCAAGAUUUGAUCCAUAUGGAAAGAAUAAGUUCUCCACUUGCCGAAUUUGUAAAAGUUCUGUGCACCAACCAGGUUCUCAUUACUGCCAGGGCUGUGCCUAC` has a bound/input enrichment of 0.197 ratio.
`AGCAAAAAAAAAAAAAAAAAAAAAAAAAAAAAGAGUCUCACUGUGCAGCUCAGCUUGUCUUUCCGUGUGUAGGCCUGGUUGUGAUCUUCCCAUCUCCUGAGAGCUGAGAUUACCAGUGUG` has a bound/input enrichment of 0.44 ratio.
With `AAAGAUCCUAAUAUGAAAGGUGCAAUGCUUACCAACACUGGAAAAUAUGCAAUACCAACUACCGAUGCAGAAGCAUAUGCAAUUGGGAAGAAAGAGAAACCUCCCUUCUUACCAGAGGAG` the bound/input enrichment was 0.208 ratio.

Sample 3 — technique: RNA Bind-n-Seq; form: RNA; matrix: in vitro; concentration: 365 nM; reference: no-protein control; direction: higher = stronger binding
Target: RNA binding protein fox-1 homolog 2, RRM domain, GST-SBP tag (RBFOX2, Homo sapiens, UniProt O43251-10, residues 100-194)
Setting: natural RNA segment, single round, ends assumed
Shared flanks, not repeated: GGGAGUUCUACAGUCCGACGAUC … UGGAAUUCUCGGGUGCCAA
Target sequence (chain): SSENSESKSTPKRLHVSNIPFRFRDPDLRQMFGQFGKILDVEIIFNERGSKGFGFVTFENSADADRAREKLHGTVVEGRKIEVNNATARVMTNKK
For `GGAGAUGGCUGGGACCACUGCACAGGAGGGCGCAGCCUGGCGUCGCCAUGAAAGUUGUCUCUGUGCCAUCUCUCCGGUCCUUGAGGAGAGCCCAGAAAGAUUUUAGGACC`, “RBNS enrichment (R)” read 0.275.
`UAUUCGAUCUGUGCCAUGACUCUUCUGAAUGUUUGGACAGGUUAGAGUUGGGGACCCCUGUUGGCCACUUGUUGACCUCUCAUAGUGGUGCUUGGGCCAGGUCUUCUCAA`: “RBNS enrichment (R)” 0.684.
`UACUCAUGCUGUUACUGUACUUAUGCACCAUUCAGACUUGUUAGAGUAGAUGUGGGUUUAUGACUGCCAAGUUUGCCCAGUACAGUAGUUUUUUAUCACUAAAAGUUGGA` — result for “RBNS enrichment (R)”: 0.713.
For `CAUGUGAUGAUACAUGGGAAGAACUAUAGAAAGAAUUAUCCAGAAGCUAAGAUUUGAUGGCCAGCUGGUUGCCAAAACCUCAAGUCAAUCCUGUGUGCUGGUUAGUUAUG`, “RBNS enrichment (R)” read 0.436.
`UGUAGAAAACAAAAUGGAUAAAAUCUGAUAUGUAUUGUUUGGGAUCCUAUUGAACCAUGUUUGUGGCUAUUAAAACUCUUUUAACAGUCUGGGCUGGGUCCGGUGGCUCA`: “RBNS enrichment (R)” 4.2.
`GUGCUGAGCGGGCAAGCAAUAAAACAAAUCAUACCAAAAAGCCACAUUGCUCUCUCCUAAGCCCCAACCCCACUCCACUCCUGUGGCCAGGGGUCCAAACAGAAAAUAAC` — result for “RBNS enrichment (R)”: 0.314.
Under “RBNS enrichment (R)”, `UUUUUUUUUUUUUAAAAAAAACAAAAAACAAACGACCAUUUCUCUAAGCCAAGUUUCUUUUAGAGACAUUUUAACUUAUUUAGCUGAACUCUAGAUUUUUUGGUAAACUA` is recorded as 0.578.
Under “RBNS enrichment (R)”, `UCAUAACUAGACUUGAGUGGGCUGAAUAAACCACUUCACUAACUUGAAGUUCAAAAGGAUGGAAAAUGUCUUGGUUUGAUCUGUGGACUGCUGCUUUUCUGAUCGUUAUU` is recorded as 0.688.
Under “RBNS enrichment (R)”, `ACAUAAUGUCAUUUGAACCUCACAAUGUUCUUGGGAUGGAGUCAGUUGUUCAGGGUCCCCGUGUGUGUGAUAAGCAGUGCUGGCUGGCUGUCUUCAGAACUCUUGGAAAU` is recorded as 0.501.
`CAAGGUGCUGCUGCUUGCCCAAAUGUUUUCCCAUGGGAUAUGUACCGGAAGGUUUAUCACCACCCUGGGAAACAUAAUGCUGCCCCUUGGGCCCAGAAAGGGGUUUCCAG`: “RBNS enrichment (R)” 1.41.
`AAUGCCUUCUCCCUGACCUUGACACUUCCCCCUUUAGCUAUAAAAGCACUUACCAGCCGAACGUGGAACAGUAUCACAAAAGAUUCCAUCUCCCAACGAUUUCAGAACUC` — result for “RBNS enrichment (R)”: 0.551.
`UGGGGCAGCUUCUGGCAUCUUCCCAGGCCCCCUUUCCCAGCCGGGUGUGGAGCUAGGUAGGCUAGGGUCUGUUUCACCAGGAAUCUCUCCUGAGGCCCAGUGGCAGCCUC` — result for “RBNS enrichment (R)”: 0.356.

Sample 4 — technique: protein-binding microarray; form: double-stranded DNA, one strand shown; matrix: in vitro; concentration: 2540 nM top; setting: 60-bp whole probe; together with: salmon DNA 0.4 mg/ml; reference: random background probes; direction: higher = stronger binding; shared flanks, not repeated: GCCTAGCAC … GTCTTGATTCGCTTGACGCTGCTG
Target: Interferon regulatory factor 3, full length, phosphomimetic (IRF3, Homo sapiens, UniProt Q14653, residues 1-427, S386D/S396D/S398D/S402D/T404D/S405D)
Target sequence (chain): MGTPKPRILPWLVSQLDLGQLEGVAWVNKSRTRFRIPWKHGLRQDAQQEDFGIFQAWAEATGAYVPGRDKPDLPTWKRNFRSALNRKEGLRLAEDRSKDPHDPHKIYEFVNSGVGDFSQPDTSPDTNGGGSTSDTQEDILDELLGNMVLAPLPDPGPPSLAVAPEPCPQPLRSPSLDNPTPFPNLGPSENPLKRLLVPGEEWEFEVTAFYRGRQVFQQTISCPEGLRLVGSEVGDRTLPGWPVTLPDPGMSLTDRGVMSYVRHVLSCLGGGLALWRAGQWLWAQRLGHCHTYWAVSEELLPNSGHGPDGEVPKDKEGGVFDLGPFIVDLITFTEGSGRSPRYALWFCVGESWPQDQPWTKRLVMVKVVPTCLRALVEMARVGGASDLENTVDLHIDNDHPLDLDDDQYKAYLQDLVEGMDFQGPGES
For `GACGATTTCGGGATTGGAGACGTGCTA`, “fitted relative affinity” read 1.98 z-score.
For `TTAGACTTCAGTTTCGATTAGTGCTAG`, “fitted relative affinity” read 3.06 z-score.
`TTAGGACTGGACTTCCGGTTAGTGCTA`: “fitted relative affinity” -0.409 z-score.
`TTAGACTTCGGGTATCGATTAGTGCTA` — result for “fitted relative affinity”: -0.295 z-score.
Under “fitted relative affinity”, `GACGGACTGCTTATCTTGACGTGCTAG` is recorded as -0.334 z-score.
`TTAGGAGTGGGGTTTCGGTTAGTGCTA` — result for “fitted relative affinity”: 2.56 z-score.
`ATTGATAGTTTCACAATGCCGTGCTAG`: “fitted relative affinity” 3.92 z-score.
`TCAGATATCGGGTATCGATTAGTGCTA`: “fitted relative affinity” 0.721 z-score.
For `TTAGGACTGGAGTATCGGTTAGTGCTA`, “fitted relative affinity” read 0.457 z-score.
`TTAGGTTTCCGACTGGGTTAGTGCTAG` — result for “fitted relative affinity”: 4.18 z-score.
`TCATATATACACTTATGACTGTGCTAG`: “fitted relative affinity” 0.823 z-score.
`TTAGAACTGAGTCTCGATTAGTGCTAG`: “fitted relative affinity” -0.416 z-score.
`GACGATATCGGGTAGCGAGACGTGCTA` — result for “fitted relative affinity”: 0.058 z-score.
`GACGGTTCCCTTTTCCTGATGTGCTAG` — result for “fitted relative affinity”: 5.73 z-score.
For `TCATACATGAGTTTAGAACTGTGCTAG`, “fitted relative affinity” read -0.11 z-score.
Under “fitted relative affinity”, `GACGGTTCCCTTTACCTGACGTGCTAG` is recorded as 4.86 z-score.
`TCAACTCTGCCTCTAACACTGTGCTAG`: “fitted relative affinity” 0.0359 z-score.
`CAATATATATATTATATATTTGTGCTA`: “fitted relative affinity” 1.1 z-score.
`TCAGAGCTCTGTCTGGGACTGTGCTAG`: “fitted relative affinity” -0.69 z-score.
`TTAGGGCTGGGTTTCGGTTAGTGCTAG` — result for “fitted relative affinity”: 2.96 z-score.
`TCAACTTTCTTTAACATACTGTGCTAG`: “fitted relative affinity” 1.26 z-score.
Under “fitted relative affinity”, `GATGGTCTCCTTTTCCTGACGTGCTAG` is recorded as 4.75 z-score.

Repeated from above (sample 1):
`GACCAATA` has an E-score of -0.0253.
With `TCCTACGA` the E-score was -0.153.
`ATGTTCTA` gave an E-score of -0.101.
With `CCCAAGAA` the E-score was -0.201.
With `CGCGCGGC` the E-score was 0.401.
